Measured values collected from several papers.
Each numbered part is a random draw from the data of one study; scales do not carry over between parts. Changes are numbered by the printed parent chain.

Set 1
Target: TAR DNA-binding protein 43, full length, His tag (TARDBP, Homo sapiens, UniProt Q13148, residues 1-414)
Method: RNA Bind-n-Seq
Molecule type: RNA
Medium: in vitro
Tested at: 20 nM
Setting: 6-mer, flanks averaged, single round
Together with: 150 mM KCl
Baseline: input library
Reading: higher = stronger binding
Measurement: 6-mer enrichment (R)
ACAAAG: 0.771
AAAUGU: 0.721
AUGGAG: 1.62
GCACUU: 0.65
AACCGU: 0.612
CUCAUA: 0.56
CUUUGU: 0.646
GGUAUG: 1.8

Set 2
Target: Ras GTPase-activating protein-binding protein 1, full length (G3BP1, Homo sapiens, UniProt Q13283)
Chain of UniProt Q13283 (whole entry, looked up): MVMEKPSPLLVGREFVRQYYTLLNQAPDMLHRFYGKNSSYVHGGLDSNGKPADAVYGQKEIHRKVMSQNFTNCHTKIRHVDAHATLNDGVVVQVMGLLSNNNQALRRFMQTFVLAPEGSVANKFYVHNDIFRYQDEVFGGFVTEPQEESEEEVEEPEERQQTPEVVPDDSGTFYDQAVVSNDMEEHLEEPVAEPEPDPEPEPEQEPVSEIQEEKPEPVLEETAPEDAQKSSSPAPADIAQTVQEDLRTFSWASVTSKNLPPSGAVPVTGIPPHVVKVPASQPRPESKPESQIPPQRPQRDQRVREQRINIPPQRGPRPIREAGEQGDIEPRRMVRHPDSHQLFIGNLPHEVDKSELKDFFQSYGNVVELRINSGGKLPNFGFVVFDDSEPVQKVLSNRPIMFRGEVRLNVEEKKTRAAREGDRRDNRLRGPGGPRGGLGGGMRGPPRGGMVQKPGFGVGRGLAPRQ
Method: RNA Bind-n-Seq
Molecule type: RNA
Medium: in vitro
Tested at: 200 nM
Setting: whole 134-nt RNA, ends assumed
Together with: 150 mM LiCl
Baseline: input library
Reading: higher = stronger binding
Measurement: log2 enrichment
Each molecule: 7-deaza-guanosine replaces G
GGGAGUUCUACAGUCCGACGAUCCCUGUGCUACACAUCGUAUGUACCGAAUCGGUUUUUUGGGGUUUUUUGGGUUUUUUGGGGAAAGUAUUAUGUUACGCCGUUCGGAUCUGCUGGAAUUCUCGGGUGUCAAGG: -0.0812
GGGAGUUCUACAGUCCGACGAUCUCAAGUCCUGUGCUACACAUCGUAUGUACCGAAUCGGUUUUUUUGGUUUGGAGGAAAGUAUUAUGUUACGCCGUUCGGAUCUGCACUUCCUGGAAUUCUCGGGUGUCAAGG: -0.547
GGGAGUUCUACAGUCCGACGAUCCUCAAGUCCUGUGCUACACAUCGUAUGUACCGAAUCGGGUGGGUGGGUUUGGGAAAGUAUUAUGUUACGCCGUUCGGAUCUGCACUUCCAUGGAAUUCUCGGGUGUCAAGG: -0.465
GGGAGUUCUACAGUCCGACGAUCUGGGAGGUGGAUUUAGUUUAUUUUUUUAGCUCAUUUCCAGGGGUGGGAAUUUUUUUUUAAUAUGUGUCAUGAAUAAAGUUGUUUUUGAAAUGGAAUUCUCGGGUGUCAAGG: -0.531
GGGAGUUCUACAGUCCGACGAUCCACAGACAACACGCACCCACACAGACACAGAGGGAAGGGGUUGGGAUGGGGACAGGGUGCACAAAAGGGCGGGGUAGGACCCCAGCCCCUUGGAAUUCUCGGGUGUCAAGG: -0.00424
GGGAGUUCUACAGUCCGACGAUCUCCUGUGCUACACAUCGUAUGUACCGAAUCGGGGAAAGGGGUUUUUUUGGGGAAAGGGGAAAGUAUUAUGUUACGCCGUUCGGAUCUGCAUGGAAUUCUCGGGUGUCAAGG: 0.269
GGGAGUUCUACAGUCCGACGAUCCAAGUCCUGUGCUACACAUCGUAUGUACCGAAUCGGGUUUUUGGGAAAGGGUGGGAAAGUAUUAUGUUACGCCGUUCGGAUCUGCACUUCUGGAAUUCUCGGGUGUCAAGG: -0.381
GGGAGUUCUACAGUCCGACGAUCAGUCCUGUGCUACACAUCGUAUGUACCGAAUCGGGGUGGGGAAAAAAAGGGGUGGGGAAAGUAUUAUGUUACGCCGUUCGGAUCUGCACUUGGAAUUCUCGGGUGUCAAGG: 0.301

Mixed results
P1: viral docking peptide; KKVKRRLFETREL; partner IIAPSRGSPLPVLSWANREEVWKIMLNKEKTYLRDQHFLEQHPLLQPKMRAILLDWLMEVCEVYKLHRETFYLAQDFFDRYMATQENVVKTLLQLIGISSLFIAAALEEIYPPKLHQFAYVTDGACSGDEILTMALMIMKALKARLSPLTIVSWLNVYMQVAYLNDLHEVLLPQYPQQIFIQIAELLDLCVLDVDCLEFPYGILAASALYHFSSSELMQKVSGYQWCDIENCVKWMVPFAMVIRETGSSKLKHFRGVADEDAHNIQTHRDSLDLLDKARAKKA
PhoQ, residues 284 288 289 292 302 303 GLASVI
fold induction (PhoP, residues 12 14 15 18 19 LQHIR (Escherichia coli, UniProt P23836); Sort-seq, item: YFP reporter; E. coli; PhoQ-PhoP variant library, together with: 10 µM Mg2+; baseline: high Mg2+ state, higher = stronger signaling): 23.7

P1 E9A
normalised enrichment score (CCNE1, cyclin fold, Cln2 fusion (human); yeast growth competition, sequencing; yeast; strong parent motif; baseline: not given, higher = stronger binding): 3.7

Excerpt of the above (set 2):
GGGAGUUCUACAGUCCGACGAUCCACAGACAACACGCACCCACACAGACACAGAGGGAAGGGGUUGGGAUGGGGACAGGGUGCACAAAAGGGCGGGGUAGGACCCCAGCCCCUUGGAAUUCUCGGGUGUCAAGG: -0.00424
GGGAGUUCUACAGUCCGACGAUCUCCUGUGCUACACAUCGUAUGUACCGAAUCGGGGAAAGGGGUUUUUUUGGGGAAAGGGGAAAGUAUUAUGUUACGCCGUUCGGAUCUGCAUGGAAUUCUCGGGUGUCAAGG: 0.269
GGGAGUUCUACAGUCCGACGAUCCAAGUCCUGUGCUACACAUCGUAUGUACCGAAUCGGGUUUUUGGGAAAGGGUGGGAAAGUAUUAUGUUACGCCGUUCGGAUCUGCACUUCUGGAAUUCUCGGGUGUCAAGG: -0.381
